Results gathered from unrelated publications.
Values after ≈ are worked out from the molar mass of the structure shown.
Organism: Enterococcus faecium

C/C=C(\C)c1cc(O)c(C)c(OC(=O)c2c(C)c(Cl)c(O)c(Cl)c2O)c1  MIC (broth microdilution; 35682): 16 µg/mL
CC(=O)NC[C@H]1CN(c2ccc(N3CCOCC3)c(F)c2)C(=O)O1  MIC90 (agar dilution; vancomycin-intermediate; 25 isolates): 4 µg/mL (≈ 11.9 µM)
CC(=O)NC[C@H]1CN(c2ccc(N3CCOCC3)c(F)c2)C(=O)O1  MIC (NR-32094): 1.48 µM
CN[C@H](CC(C)C)C(=O)N[C@H]1C(=O)N[C@@H](CC(N)=O)C(=O)N[C@H]2C(=O)N[C@H]3C(=O)N[C@H](C(=O)N[C@H](C(=O)O)c4cc(O)cc(O)c4-c4cc3ccc4O)[C@H](O)c3ccc(c(Cl)c3)Oc3cc2cc(c3O[C@@H]2O[C@H](CO)[C@@H](O)[C@H](O)[C@H]2O[C@H]2C[C@](C)(N)[C@H](O)[C@H](C)O2)Oc2ccc(cc2Cl)[C@H]1O  MIC (broth microdilution; 35682): > 64 µg/mL
CCCCN(C(=O)Nc1cc(-c2ccc(Cl)c(Cl)c2)sc1C(=O)O)c1ccccc1  MIC (DSM 20477; added: no added folic acid): 16 µM
C/C=C(\C)c1cc(OC(=O)c2c(O)c(C)c(O)c(Cl)c2/C(C)=C/C)c(C)c(O)c1C(=O)O  MIC (broth microdilution; 36235): 64 µg/mL
C=C[C@]1(C)C[C@@H](OC(=O)CS[C@@H]2C[C@H]3CC[C@@H](C2)N3C)[C@]2(C)[C@H](C)CC[C@]3(CCC(=O)[C@H]32)[C@@H](C)[C@@H]1O  MIC50 (agar dilution; vancomycin-susceptible, 64 isolates): 16 µg/mL (≈ 30.9 µM)
Cc1ccc(CCC(=O)Nc2nnc(S(N)(=O)=O)s2)cc1  MIC (NR-32053): 0.0919 µM
CC[C@H]1OC(=O)[C@H](C)[C@@H](O[C@H]2C[C@@](C)(OC)[C@@H](O)[C@H](C)O2)[C@H](C)[C@@H](O[C@@H]2O[C@H](C)C[C@H](N(C)C)[C@H]2O)[C@](C)(O)C[C@@H](C)/C(=N\OCOCCOC)[C@H](C)[C@@H](O)[C@]1(C)O  MIC90 (agar dilution; vancomycin-intermediate; 25 isolates): > 128 µg/mL
CN[C@H](CC(C)C)C(=O)N[C@H]1C(=O)N[C@@H](CC(N)=O)C(=O)N[C@H]2C(=O)N[C@H]3C(=O)N[C@H](C(=O)N[C@H](C(=O)O)c4cc(O)cc(O)c4-c4cc3ccc4O)[C@H](O)c3ccc(c(Cl)c3)Oc3cc2cc(c3O[C@@H]2O[C@H](CO)[C@@H](O)[C@H](O)[C@H]2O[C@H]2C[C@](C)(N)[C@H](O)[C@H](C)O2)Oc2ccc(cc2Cl)[C@H]1O  MIC50 (Enterococcus faecium; 40 strains): 1 µg/mL (≈ 0.69 µM)
CN[C@H](CC(C)C)C(=O)N[C@H]1C(=O)N[C@@H](CC(N)=O)C(=O)N[C@H]2C(=O)N[C@H]3C(=O)N[C@H](C(=O)N[C@H](C(=O)O)c4cc(O)cc(O)c4-c4cc3ccc4O)[C@H](O)c3ccc(c(Cl)c3)Oc3cc2cc(c3O[C@@H]2O[C@H](CO)[C@@H](O)[C@H](O)[C@H]2O[C@H]2C[C@](C)(N)[C@H](O)[C@H](C)O2)Oc2ccc(cc2Cl)[C@H]1O  ED50 (-30, compound-intermediate, mouse systemic infection; intravenous; survival): 28.6 mg/kg
Cc1c2c(nn1C)CSCc1cc(n(C)n1)CSc1cc(c3ccccc3c1)OCCCc1c(C(=O)O)n(C)c3c-2c(Cl)ccc13  number of isolates (broth microdilution MIC; 12.5 µM): 10
